# Results gathered from unrelated publications.
# Values joined by “and” are separate records of one study, mostly repeats; a detail may differ. ± gives the spread as reported.
# STING1 H232R: Stimulator of interferon genes protein (STING1, Homo sapiens, UniProt Q86WV6, H232R)
SMILES,tested on,test,test system,setting,scale,quantity,result
CCOC(=O)NN,,"hydrazine ligation kinetics, absorbance",,"concentration not given, 45 s, together with: 2-formylphenylboronic acid",,normalised absorbance,0.84
CNS(=O)(=O)Nc1nccc(Cc2c(C)c3ccc(Oc4ncccc4F)cc3oc2=O)c1F,G-401,cell viability,,7 days,,IC50,0.508 µM
CC[C@H](C)[C@@H](C(=O)N[C@@H](CC(C)C)C(=O)N[C@@H](CO)C(=O)N[C@@H](CO)C(=O)N[C@H](C(=O)N[C@@H](CCC(=O)O)C(=O)N[C@H](C(=O)NCC(=O)N[C@@H](CO)C(=O)N[C@@H](CO)C(=O)N[C@H](C(=O)N1CCC[C@H]1C(N)=O)[C@@H](C)O)C(C)C)[C@@H](C)O)N(C)C(=O)[C@H](C)NC(=O)CN(C)C(=O)[C@H](Cc1ccccc1)NC(=O)[C@H](CO)NC(=O)[C@H](CO)NC(=O)[C@H](CCCNC(=N)N)NC(=O)[C@H](CCC(N)=O)NC(=O)[C@H](CC(C)C)NC(=O)[C@H](Cc1ccccc1)NC(=O)[C@H](Cc1c[nH]cn1)NC(=O)[C@H](C)NC(=O)[C@H](CC(C)C)NC(=O)[C@H](CCCNC(=N)N)NC(=O)[C@H](CCC(=O)O)NC(=O)[C@@H](NC(=O)[C@H](C)NC(=O)[C@@H]1CSSC[C@H](NC(=O)[C@H](CCCNC(=N)N)NC(=O)CC[C@H](NC(=O)CCCCCCCCCCCCCCCCCCC(=O)O)C(=O)O)C(=O)NCC(=O)N[C@@H]([C@@H](C)O)C(=O)N[C@@H](C)C(=O)N[C@@H]([C@@H](C)O)C(=O)N1)[C@@H](C)O,,,male Sprague-Dawley rats,"subcutaneous, 30 nmol/kg single dose, 96 h",,body weight loss,5.1 ± 0.2%
COc1cc2nc(N3CCN(C(=O)C4CC5(CCC5)CO4)CC3)nc(N)c2cc1OC (centres unmarked),,blood pressure,"spontaneously hypertensive rat, male","oral, 3 mg/kg",,time to maximum BP lowering,15 min
Cc1cc(C)cc(NC(=O)CCN2CCCCCC2)c1,,locomotor activity in dark,"Danio rerio larvae, 7 dpf, well of 10 larvae","10 µM, minute 7, dark",,third-quartile larval motion,8.3 ± 1.9 pixels/frame
NNC(=O)Cc1ccccc1,,"hydrazine ligation kinetics, absorbance",,"concentration not given, 30 s, together with: 2-formylphenylboronic acid",,normalised absorbance,0.657
CC(=O)[O-].O.O.[O-]c1ccc(Br)cc1C=NCCN1CCOCC1.[Zn+2],,nitric oxide scavenging,,80 µM,,inhibition,17.2%
O=C(N[C@@H](CCNC(=O)c1ccc([N+](=O)[O-])o1)c1nc2ccccc2[nH]1)c1cnn(-c2ccccc2)n1,STING1 H232R,"reporter gene, inhibitor",THP1-Dual KI-hSTING-R232,"24 h, 1 h preincubation, together with: diABZI 500 nM",,EC50,15.8 µM
COC1CN([C@H]2CC[C@H]([C@@]3(C)Oc4c(Cl)cc(C(=O)NCc5c(SC)cc(C)[nH]c5=O)c(C)c4O3)CC2)C1,,"RNA-seq, item: PLAG1","human, whole blood","dose not given, 24 h",baseline: pretreatment baseline,log2 fold change,2.33
COc1cccc(OCC(O)CN2CCN(c3ccccc3OC)CC2)c1 (centres unmarked),,locomotor activity in dark,"Danio rerio larvae, 7 dpf, well of 10 larvae","10 µM, minute 7, dark",,third-quartile larval motion,8.5 ± 1.6 pixels/frame
COc1ccc(NC(=O)c2ccc3[nH]c(-c4ccc(N(C)C)cc4)nc3c2)cn1,,,"CT26, BALB/c nude mice, subcutaneous graft","dose not given, day 4",,tumour volume,125 mm3 and 381 mm3 and 273 mm3 and 242 mm3 and 275 mm3
COC(=O)[C@]1(Cc2ccccc2)C=C(C(=O)OC(C)(C)C)C(=O)CC1,"MAPK8 (Homo sapiens, UniProt P45983)","D-peptide binding, inhibitor, FP peptide displacement",,250 µM,lower is stronger displacement,fraction bound,-0.0646
CCC(=O)N[C@@H](C)C(=O)OCC(=O)N[C@@H](C)C(=O)O,,,water,"pH 7, 25 °C",,chain scission rate constant,0.0078 h⁻¹
CN(C)C(=O)c1ccnc(N2Cc3cn(Cc4ccc(F)cc4F)nc3C2)n1,,"immunostaining intensity, item: non-phosphorylated neurofilament SMI32","mouse cuprizone diet, corpus callosum","dose not given, unit not given",baseline: cuprizone plus vehicle,Cohen's d effect size,-0.036
C=C(NC(=O)c1csc(-c2nc3c(cc2O)-c2nc(cs2)C(=O)NC(C(C)O)C(=O)NC(=C(C)OC)c2nc(cs2)C(=O)NC2c4nc(cs4)C(=O)NC(COC(=O)c4c5c6c(cccc6n4O)COC(=O)C(OC4CC(C)(O)C(N(C)C)C(C)O4)C2OC5)c2nc-3cs2)n1)C(N)=O (centres unmarked),Staphylococcus epidermidis,microbial growth,,clinical isolate,,MIC50,7.8 ng/mL
COc1ccccc1-c1ccncc1C(=O)Nc1nnc(OCc2ccc(Cl)cc2)s1,,,"Brca1 Δ11/Δ11 Polq-/- MEFs, mouse",1.25 µM,,colony survival,91.9% and 94.1% and 85% and 86% and 100% and 98.3%
O=C([O-])CN1CCN(CC(=O)[O-])CCN(Cc2cccc(C(=O)[O-])n2)CC1.[18F-].[Sc+3],,,"mouse, stomach","intravenous, 1 h",,tracer uptake,0.09 %ID/g
COc1ccc(C(=O)CCc2cc(C(CCc3ccc(O)cc3OC)c3ccc(O)cc3)c(O)cc2OC)cc1 (racemic),,item: 12-HEPE,human whole blood,"10 µM, together with: A23187",,amount,215 ± 72 pg/mL blood
O=C(N[C@@H](CCCCNC(=O)c1ccc([N+](=O)[O-])o1)c1nc2ccccc2[nH]1)c1ccc(-c2cccnc2)cc1,STING1 H232R,"reporter gene, inhibitor",THP1-Dual KI-hSTING-R232,"24 h, 1 h preincubation, together with: diABZI 500 nM",,EC50,3.2 µM
Cc1cccc(C)c1CNc1cc(C(=O)N2CCC2)cn2c(C)c(C)nc12,,gastric acid secretion,dog Heidenhain pouch,"oral, 3 mg/kg, 24 h after dosing, together with: histamine",,inhibition,74.3%
C[C@@H]1O[C@@H](Oc2ccc(CC(N)=O)cc2)[C@H](O)[C@H](O)[C@H]1O,,ABTS radical,,300 µg/mL,,radical scavenging,21.1 ± 1.12%
COc1ccc(N2CCN(CC(O)COc3ccc4ccccc4c3)CC2)cc1 (centres unmarked),,locomotor activity in dark,"Danio rerio larvae, 7 dpf, well of 10 larvae","10 µM, minute 3, dark",,third-quartile larval motion,4.7 ± 0.8 pixels/frame
COc1cc([C@@H]2O[C@@H](c3cc(OC)c(O[C@@H]4O[C@H](CO)[C@@H](O)[C@H](O)[C@H]4O)c(OC)c3)[C@H](CO)[C@H]2CO)cc(OC)c1O,,Oil Red O,"3T3-L1, mouse","5 µM, day 8",,lipid content,decreased
CN1CCC[C@]1(C)/C=C/S(=O)(=O)NC(=O)Nc1c2c(cc3c1CCC3)CCC2,,,"human, whole blood ex vivo","100 mg twice daily, day 1, 6 h, multiple ascending dose, together with: LPS and ATP",,IL-1β inhibition,98.7%
CCCC[C@H](NC(=O)COCCOCCNC(=O)CN1CCN(CC(=O)O)CCN(CC(=O)O)CC1)C(=O)N[C@H]1CC(=O)NCCCC[C@@H](C(N)=O)NC(=O)[C@H](Cc2c[nH]c3ccccc23)NC(=O)[C@H](CCCNC(=N)N)NC(=O)[C@@H](Cc2ccccc2)NC(=O)[C@H](Cc2c[nH]cn2)NC1=O [technetium-99m labelled],,,"C57 mouse, spleen","intravenous, 0.037 MBq, 2 h",,tissue uptake,0.17 ± 0.08 %ID/g
OC(COCC1COc2ccccc2O1)CN1CCN(c2ccccc2)CC1 (centres unmarked),,locomotor activity in dark,"Danio rerio larvae, 7 dpf, well of 10 larvae","10 µM, minute 3, dark",,third-quartile larval motion,2 ± 0.7 pixels/frame
Oc1cc2c(cc1O)C(c1cccc3ccccc13)NCC2 (centres unmarked),,"DPPH scavenging, absorbance",,"30 min, dark",,IC50,24.3 µM
Cc1ncsc1-c1ccc(C(C)NC(=O)C2CC(O)CN2C(=O)C(NC(=O)CCCCCCCCCCN2CCCC(Nc3ncc(Cl)c(Nc4ccccc4S(=O)(=O)C(C)C)n3)C2)C(C)(C)C)cc1 (centres unmarked),22Rv1,"RNA-seq, item: PFKFB3 mRNA",,concentration not given,baseline: DMSO,log2 fold change,-1.37
COc1cc(/C=N/N2C(=O)c3ccccc3NC2c2cc(OC)c(O)c([N+](=O)[O-])c2)cc([N+](=O)[O-])c1O (centres unmarked),,photosynthetic electron transport,Spinacia oleracea chloroplasts,,,IC50,234 µM
CC(C)C[C@H](NC(=O)[C@H](Cc1ccccc1)NC(=O)[C@H](C)NC(=O)[C@@H](CS)NC(=O)CNC(=O)[C@H](N)CO)C(=O)N[C@@H](CO)C(=O)N[C@H](C(=O)N[C@@H](CCCCN)C(=O)N[C@@H](CCCCN)C(=O)N[C@@H](CCC(N)=O)C(=O)N[C@@H](Cc1ccccc1)C(=O)N[C@@H](CCC(=O)O)C(=O)N[C@@H](CCC(=O)O)C(=O)N[C@@H](CC(C)C)C(=O)N[C@H](C(=O)N[C@@H](CC(C)C)C(=O)NCC(=O)N[C@@H](CCC(=O)O)C(=O)N[C@@H](Cc1ccccc1)C(=O)N[C@@H](CC(C)C)C(=O)N[C@H](CCCCN)C(=O)N[C@H](CC(C)C)C(=O)N[C@H](CC(=O)O)C(=O)N[C@@H](CCCNC(=N)N)C(=O)N[C@H](CCCNC(=N)N)C(=O)N[C@@H](CCCNC(=N)N)C(=O)N[C@@H](CCCCN)C(=O)O)[C@@H](C)O)C(C)C,,"immunostaining, RT-qPCR","mouse A549 xenograft, tumour","intratumoral, dose not given",,Ki-67 level decrease,90%
CC[C@H](C)[C@@H](C(=O)N[C@@H](CC(C)C)C(=O)N[C@@H](CO)C(=O)N[C@@H](CO)C(=O)N[C@H](C(=O)N[C@@H](CCC(=O)O)C(=O)N[C@H](C(=O)NCC(=O)N[C@@H](CO)C(=O)N[C@@H](CCCN)C(=O)N[C@H](C(=O)N1C[C@H](O)C[C@H]1C(N)=O)[C@@H](C)O)C(C)C)[C@@H](C)O)N(C)C(=O)[C@H](C)NC(=O)CN(C)C(=O)[C@H](Cc1ccccc1)NC(=O)[C@H](CO)NC(=O)[C@H](CO)NC(=O)[C@H](CCCNC(=N)N)NC(=O)[C@@H](NC(=O)[C@H](CC(C)C)NC(=O)[C@H](Cc1ccccc1)NC(=O)[C@H](Cc1c[nH]cn1)NC(=O)[C@H](C)NC(=O)[C@H](CC(C)C)NC(=O)[C@H](CCCNC(=N)N)NC(=O)[C@H](CCC(=O)O)NC(=O)[C@@H](NC(=O)[C@H](C)NC(=O)[C@@H]1CSSC[C@H](NC(=O)[C@H](CCCNC(=N)N)NC(=O)CC[C@H](NC(=O)CCCCCCCCCCCCCCCCCCC(=O)O)C(=O)O)C(=O)NCC(=O)N[C@@H]([C@@H](C)O)C(=O)N[C@@H](C)C(=O)N[C@@H]([C@@H](C)O)C(=O)N1)[C@@H](C)O)[C@@H](C)O,,,male Sprague-Dawley rats,"subcutaneous, 30 nmol/kg single dose, 96 h",,body weight loss,7.2 ± 0.6%
O=C(NC[C@@H]1O[C@H]2CC/C=C/CC[C@H]2O1)c1ccc(COCCOCCOCCF)cc1,,"IEDDA cycloaddition, substrate, stopped-flow spectrophotometry",water/methanol 45:55,"0.25 mM, 298 K, together with: methyltetrazine-NHS 0.05 mM",,observed rate constant kobs,0.38 ± 0.000879 s⁻¹

# A few entries again:
SMILES,tested on,test,test system,setting,scale,quantity,result
CCC(=O)N[C@@H](C)C(=O)OCC(=O)N[C@@H](C)C(=O)O,,,water,"pH 7, 25 °C",,chain scission rate constant,0.0078 h⁻¹
Cc1cc(C)cc(NC(=O)CCN2CCCCCC2)c1,,locomotor activity in dark,"Danio rerio larvae, 7 dpf, well of 10 larvae","10 µM, minute 7, dark",,third-quartile larval motion,8.3 ± 1.9 pixels/frame
COc1cc2nc(N3CCN(C(=O)C4CC5(CCC5)CO4)CC3)nc(N)c2cc1OC (centres unmarked),,blood pressure,"spontaneously hypertensive rat, male","oral, 3 mg/kg",,time to maximum BP lowering,15 min
COc1cc([C@@H]2O[C@@H](c3cc(OC)c(O[C@@H]4O[C@H](CO)[C@@H](O)[C@H](O)[C@H]4O)c(OC)c3)[C@H](CO)[C@H]2CO)cc(OC)c1O,,Oil Red O,"3T3-L1, mouse","5 µM, day 8",,lipid content,decreased
COc1ccc(C(=O)CCc2cc(C(CCc3ccc(O)cc3OC)c3ccc(O)cc3)c(O)cc2OC)cc1 (racemic),,item: 12-HEPE,human whole blood,"10 µM, together with: A23187",,amount,215 ± 72 pg/mL blood
